# Experimental data of several laboratories.
# Several values in a cell are separate wells, animals, samples, runs or records. Numbers after ± are the reported error.
# UniProt Q7Z569, sequence (whole entry, looked up): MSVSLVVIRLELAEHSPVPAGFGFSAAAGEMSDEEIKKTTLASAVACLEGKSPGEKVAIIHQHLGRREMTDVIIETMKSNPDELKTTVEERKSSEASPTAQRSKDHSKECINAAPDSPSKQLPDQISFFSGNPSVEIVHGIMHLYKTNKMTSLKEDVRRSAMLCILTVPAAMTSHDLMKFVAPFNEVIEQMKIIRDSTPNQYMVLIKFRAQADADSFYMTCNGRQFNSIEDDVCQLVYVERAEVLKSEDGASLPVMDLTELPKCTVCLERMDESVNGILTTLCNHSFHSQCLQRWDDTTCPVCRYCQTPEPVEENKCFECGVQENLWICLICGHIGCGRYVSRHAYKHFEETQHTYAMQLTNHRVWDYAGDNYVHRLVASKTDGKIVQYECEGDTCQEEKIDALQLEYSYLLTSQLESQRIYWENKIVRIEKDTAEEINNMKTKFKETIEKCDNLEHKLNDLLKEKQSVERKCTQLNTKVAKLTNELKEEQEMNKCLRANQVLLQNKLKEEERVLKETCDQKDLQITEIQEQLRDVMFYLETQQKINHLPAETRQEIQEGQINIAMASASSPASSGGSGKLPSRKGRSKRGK
Compound,tested on,test,test system,conditions,how to read,endpoint,result
C[C@@H](Nc1cc(F)cc(F)c1)c1cc(C(=O)N(C)C)cc2c(=O)cc(N3CCOCC3)oc12,,item: Nausea,advanced solid tumour patients,"oral, dose not given, dose expansion",,related serious adverse events,0%
Cc1c(-c2ccc(N3CCc4cccc(C(=O)Nc5nc6ccccc6s5)c4C3)nc2C(=O)O)cnn1CC12CC3(C)CC(C)(C1)CC(OCCNCC[C@H](O)CO)(C3)C2,,,anaesthetized male beagle dog,"iv infusion, 0.01 mg/kg/min, 105 min",,plasma concentration,< 2 ng/mL
COc1cccc(-c2n[nH]c(SCc3ccccn3)n2)c1OC,,,"Sprague-Dawley rats, female","diet, 10 mg/kg/day, day 45, 90-day subchronic study",,serum albumin,3.66 g/dL
NC(=O)c1cnc2[nH]ccc2c1N[C@@H]1[C@@H]2CC3C[C@H]1C[C@@](O)(C3)C2,,,"healthy human volunteers, plasma","oral, population PK model, bootstrap median",,intercompartmental clearance,9.15 L/h
C=CC(=O)Nc1cc(Nc2nccc(-c3cn(C)c4ccccc34)n2)c(OC)cc1N(C)CCN(C)C,,storage stability,human plasma,"2 h, -80 °C, HQC level",,recovery,99%
C[C@@H](NC(=O)N1C(=O)[C@H](Cc2ccnc(N)c2)[C@H]1C(=O)O)C1CCCCC1,,UPLC-MS/MS,"healthy adult Chinese volunteers, plasma","continuous intravenous infusion, 1.0 mg/kg/h, day 6 of 5-day infusion, mean",,Vd,0.568 L/kg
C1=C/COCc2cc(ccc2OCCN2CCCC2)Nc2nccc(n2)-c2cccc(c2)COC/1,,,rat plasma,"600 ng/mL, 1 months, -20 °C, long-term storage",reference: nominal concentration,stability relative error,0.79%
COc1ncc(-c2nc3c(n2C(C)C)[C@H](c2ccc(Cl)cc2)N(c2cc(Cl)cn(C)c2=O)C3=O)c(OC)n1,,,"human patients, plasma","oral, 100 mg, high-dose arm, cycle 1 day 1",,median Tmax,3.5 h
O=C(O)CCn1ccccc1=O,"BRCA1-associated protein, ZnF-UBD domain (BRAP, Homo sapiens, UniProt Q7Z569)",,,,,Kd,> 1 mM
Cc1nc(-c2ccc(OCC(C)C)c(C#N)c2)sc1C(=O)O,,,"human, plasma","oral, 10 mg, together with: verinurad 2.5 mg",reference: test over reference,geometric mean ratio Cmax,89.7
CCN(CC)Cc1ccc2cc(COC(=O)Nc3ccc(C(=O)NO)cc3)ccc2c1,,,rat plasma,"800 ng/mL, 4 h, 10 °C, autosampler",reference: nominal concentration,stability relative error,96.2%
CCOC(=O)c1cnc(Nc2nc3ccccc3o2)nc1CN1CCN(c2ccccc2)CC1,,,aqueous buffer,pH 7.4,,thermodynamic solubility,< 3.57 µM
N#Cc1ccc2c(c1)[C@H]1CCCN(C(=O)c3ccc4[nH]cnc4c3)[C@H]1C2,,,"human, male","160 mg, day 7",,androstenedione level,10.7 nmol/L
CC(C)(C(=O)N1CCOc2c(C#N)cncc2C1)C(F)F,,item: vessel puncture site pain,"healthy humans, both sexes","oral, 30 mg single dose",,subjects with TEAE,0%
CC[C@H](C)[C@H](NC(=O)[C@H](Cc1ccccc1)NC(=O)[C@H](CCC(=O)O)NC(=O)[C@H](CCCNC(=N)N)NC(=O)[C@H](C)NC(=O)[C@H](C)NC(=O)[C@H](CCC(N)=O)NC(=O)[C@H](CCC(=O)O)NC(=O)[C@H](CCC(=O)O)NC(=O)[C@H](CC(C)C)NC(=O)[C@H](Cc1ccc(O)cc1)NC(=O)[C@H](CO)NC(=O)[C@H](CO)NC(=O)[C@@H](NC(=O)[C@H](CC(=O)O)NC(=O)[C@H](CO)NC(=O)[C@@H](NC(=O)[C@H](Cc1ccccc1)NC(=O)[C@@H](NC(=O)CNC(=O)[C@H](CCC(=O)O)NC(=O)[C@H](C)NC(=O)CCc1c[nH]cn1)[C@@H](C)O)[C@@H](C)O)C(C)C)C(=O)N[C@@H](C)C(=O)N[C@@H](Cc1c[nH]c2ccccc12)C(=O)N[C@@H](CC(C)C)C(=O)N[C@H](C(=O)N[C@@H](CCCNC(=N)N)C(=O)NCC(=O)N[C@@H](CCCNC(=N)N)C(=O)N[C@@H](CCCCNC(=O)COCCOCCNC(=O)COCCOCCNC(=O)CC[C@H](NC(=O)CCCCCCCCCCCCCCCCC(=O)O)C(=O)O)C(=O)O)C(C)C,,,"rat, plasma","intravenous, 20 nmol/kg",,MRT,12.9 h
CN(C)C(=N)N=C(N)N,,item: oropharyngeal pain,healthy men,"oral, dose not given, 8 days, treatment-emergent, crossover trial",,subjects with adverse event,4.5%
O=C(O)CCC(=O)O.[2H]C([2H])([2H])Oc1cc(C)c2[nH]ccc2c1CN1CC[C@@H](C2CC2)C[C@H]1c1ccc(C(=O)O)cc1,,multiple ascending dose,healthy Chinese subjects,300 mg once daily,,subjects with TEAE Eczema,0%
COc1cc(Nc2ncc3c(n2)-c2ccc(Cl)cc2C(c2c(F)cccc2OC)=NC3)ccc1C(=O)O,,,cancer patients,"oral, dose not given, all grades any attribution, together with: pembrolizumab",,patients with decreased ejection fraction,4%
C=CC(=O)Nc1cc(Nc2nccc(-c3cn(C)c4ccccc34)n2)c(OC)cc1N(C)CCN(C)C,,item: face oedema,EGFR-mutant MET-altered NSCLC patients,"oral, dose not given, AE grade ≥3, all",,incidence of treatment-related AEs,2%
CC[C@H]1CC[C@H](c2ccc(-c3ccc(F)c(F)c3)cc2)CC1,,,"rat, placenta","5000 ng/mL in perfusate, high dose, mixture of 21 LCMs",,median placental accumulation,121 ng/g
CCN1CCN(Cc2ccc(NC(=O)c3ccc(C)c(NC(=O)c4cncc(-c5cccs5)c4)c3)cc2C(F)(F)F)CC1,,,"C57BL/6 mice, plasma","intraperitoneal, 20 mg/kg",,extrapolated AUC share,9.88%
Nc1ncnc2c1ncn2[C@H]1C[C@@H]2OP(=O)(O)OC[C@H]3O[C@@H](n4cnc5c(N)ncnc54)C[C@@H]3OP(=O)(O)OC[C@H]2O1,,,"non-tumor-bearing mice, serum","intravenous, 1 mg/kg, toxicity study",,glucose,9.55 ± 2.68 mmol/L
NS(=O)(=O)c1ccc(CNc2ccnc(Nc3cccc(NC(=O)N4CCCC4)c3)n2)cc1,,PAMPA,PBS,"5 h, pH 7.4",,PAMPA permeability,not detected
NC[C@@]1(CC(=O)O)[C@@H]2CC[C@H]3C[C@@H]2[C@@H]1C3,,,"human, moderate renal impairment, plasma","dose not given, geometric mean",,unbound apparent volume of distribution,49.2 L
COc1cc2c(cc1OC)C(=O)C(CC1CCN(Cc3ccccc3)CC1)C2 (stereo not shown),,Bond-Lader VAS,human subjects,dose not given,reference: placebo,nausea VAS,-0.02 log(mm)
Cn1cc(Nc2nccc(-c3ccc4c(c3)CN(C3COC3)CC[C@H]4NC(=O)c3cn(C(C)(C)C)nn3)n2)cn1,,,"human, whole blood","150 mg twice daily, day 7",reference: pre-dose baseline,NKT cell count change,42.2%
COc1ccnc(C(=O)NC(CO)C(=O)O)c1O (racemic),,aerobic dark soil incubation,silt loam soil,"20 °C, persistence endpoint",,DT50,1.99 days
O=C(Nc1nc2cccc(-c3ccc(CN4CCS(=O)(=O)CC4)cc3)n2n1)C1CC1,,item: any adverse event,human rheumatoid arthritis patients,"oral, 150 mg once daily, 4 weeks, regardless of relatedness",,treatment-emergent adverse events,26.7%
C[C@@H]1COCCN1c1cc(C2([S@](C)(=N)=O)CC2)nc(-c2cc[nH]c3nccc2-3)n1,,,Japanese advanced solid tumour patients,"oral, 240 mg twice daily, CTCAE grade ≥3",,Paronychia incidence,0%
N#CCC1CCN(c2nc(Nc3ccc(N4CCC(O)CC4)cc3)c3c(=O)[nH]ncc3n2)CC1,,,"human, plasma","oral, 80 mg once daily, day 1",,t1/2,11.2 h
CCc1cc(C(=O)NC)c2nccc(N3CCc4c(cc(Cn5ccnc5)cc4-c4cn(C)nc4C(F)(F)F)C3=O)c2c1,,,Sprague Dawley rats,"oral, 50 mg/kg once daily, 7 days",reference: vehicle,serum WBC change,0.23%
Cc1cc(Nc2ccc(S(F)(F)(F)(F)F)cc2)n2nc(C(C)(F)F)nc2n1,,,Plasmodium vivax malaria patients,"oral, 600 mg",,adverse event Fatigue,0%
CCCCC[C@H]1CC[C@H](c2ccc(OCC)c(F)c2F)CC1,,,"rat, placenta","5000 ng/mL in perfusate, high dose, mixture of 21 LCMs",,median placental accumulation,195 ng/g
O=C1NCCc2nc(OCc3cccc(F)c3)ccc21,,item: tail pinch,Sprague-Dawley rat male,"oral, 100 mg/kg, 30 min",direction not given,Irwin test score,0
CCCCC[C@H](O)CC[C@@H]1[C@H]2Cc3cccc(OCC(=O)O)c3C[C@H]2C[C@H]1O,,LC-MS/MS,"Japanese PAH patients, plasma","inhaled, 54 µg, background ERA therapy",,geometric mean Cmax,0.61 ng/mL
O=C(O)c1cc(O)c(O)c(O)c1,,,"rat, plasma","oral, 500 mg/kg extract, extract",,MRT,5.89 ± 0.21 h
OC[C@H]1O[C@@H](c2ccc(F)c(Cc3cc4ccccc4s3)c2)[C@H](O)[C@@H](O)[C@@H]1O,,,"Japanese patients, type 1 diabetes","oral, 100 mg/day, onset day 10",reference: patients,hypoglycaemia-related adverse event,3%
CCO,,,healthy Chinese men,"0.5 g/kg, supine or semi-supine, together with: placebo",,AUEC(0-4 h) systolic BP,-11 ± 27.7 h·mmHg
O=C1CCc2ccc(OCCCCN3CCN(c4cccc(Cl)c4Cl)CC3)cc2N1,,,CYP2D6 ultrarapid metabolizers,"concentration not given, genotype-based phenotype, long-acting oral or depot",,extrapyramidal symptom frequency,10%
COc1cc2c3c(n(CCCN4CCOCC4)c(=O)c2cc1OC)-c1cc2c(cc1C3=O)OCO2,,,"beagle dog, female, plasma","oral, 860 mg/m^2, gelatin capsule",,Vz/F,1690 L/m² and 32500 L/m²
COc1ccccc1-c1nc(N2CCC(c3ccccn3)C2)c2ccccc2n1 (stereo not shown),,,Japanese Pharmacopoeia disintegration test solution 2,pH 6.8,,kinetic solubility,12 µg/mL
COc1cc(OC)c(NC(=O)CSc2nnc(-c3ccncc3)n2-c2ccccc2)cc1Cl,,,aqueous buffer,pH 7.4,,thermodynamic solubility,< 5.36 µM
CNC(=O)c1ccc(-c2cnc3ncc(Cc4ccc5ncccc5c4)n3n2)cc1F,,item: Pruritus,other cancer patients,"oral, 600 mg twice daily, expansion cohort, grade 3-4",,patients with adverse event,0%

# Some of these lines once more:
Compound,tested on,test,test system,conditions,how to read,endpoint,result
COc1cc(Nc2ncc3c(n2)-c2ccc(Cl)cc2C(c2c(F)cccc2OC)=NC3)ccc1C(=O)O,,,cancer patients,"oral, dose not given, all grades any attribution, together with: pembrolizumab",,patients with decreased ejection fraction,4%
CNC(=O)c1ccc(-c2cnc3ncc(Cc4ccc5ncccc5c4)n3n2)cc1F,,item: Pruritus,other cancer patients,"oral, 600 mg twice daily, expansion cohort, grade 3-4",,patients with adverse event,0%
C[C@@H](NC(=O)N1C(=O)[C@H](Cc2ccnc(N)c2)[C@H]1C(=O)O)C1CCCCC1,,UPLC-MS/MS,"healthy adult Chinese volunteers, plasma","continuous intravenous infusion, 1.0 mg/kg/h, day 6 of 5-day infusion, mean",,Vd,0.568 L/kg
O=C(Nc1nc2cccc(-c3ccc(CN4CCS(=O)(=O)CC4)cc3)n2n1)C1CC1,,item: any adverse event,human rheumatoid arthritis patients,"oral, 150 mg once daily, 4 weeks, regardless of relatedness",,treatment-emergent adverse events,26.7%
N#Cc1ccc2c(c1)[C@H]1CCCN(C(=O)c3ccc4[nH]cnc4c3)[C@H]1C2,,,"human, male","160 mg, day 7",,androstenedione level,10.7 nmol/L
C[C@@H]1COCCN1c1cc(C2([S@](C)(=N)=O)CC2)nc(-c2cc[nH]c3nccc2-3)n1,,,Japanese advanced solid tumour patients,"oral, 240 mg twice daily, CTCAE grade ≥3",,Paronychia incidence,0%
